Measured values of several laboratories.
A part holds a random share of what one study measured.

Sample 1
Target: Interferon regulatory factor 3, full length, phosphomimetic (IRF3, Homo sapiens, UniProt Q14653, residues 1-427, S386D/S396D/S398D/S402D/T404D/S405D)
Technique: protein-binding microarray
Molecule type: double-stranded DNA, one strand shown
Medium: in vitro
Tested at: 2540 nM top
Notes: 60-bp whole probe
Added: salmon DNA 0.4 mg/ml
Baseline: random background probes
Direction: higher = stronger binding
All sequences stand within: GCCTAGCAC … GTCTTGATTCGCTTGACGCTGCTG
Construct (chain): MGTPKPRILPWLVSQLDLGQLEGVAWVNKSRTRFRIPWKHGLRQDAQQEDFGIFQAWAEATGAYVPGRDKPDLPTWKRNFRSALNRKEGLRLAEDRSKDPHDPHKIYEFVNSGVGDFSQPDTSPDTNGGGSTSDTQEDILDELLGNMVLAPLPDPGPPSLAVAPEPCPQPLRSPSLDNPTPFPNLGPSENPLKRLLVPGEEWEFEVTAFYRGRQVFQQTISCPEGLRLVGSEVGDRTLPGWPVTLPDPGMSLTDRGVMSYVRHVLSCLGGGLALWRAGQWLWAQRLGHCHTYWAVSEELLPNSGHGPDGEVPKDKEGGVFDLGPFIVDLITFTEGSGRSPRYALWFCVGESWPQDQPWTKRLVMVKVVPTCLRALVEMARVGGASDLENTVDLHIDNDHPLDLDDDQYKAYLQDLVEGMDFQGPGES
`GTGTTATTAAAACTTCATGAAGTGCTA`: “fitted relative affinity” 0.0358 z-score.
`GACGGTTTCTTTCTCCTGACGTGCTAG`: “fitted relative affinity” 4.9 z-score.
`GACGGACTTGACTATCGGGACGTGCTA` — result for “fitted relative affinity”: -0.351 z-score.
For `GACGATCTCAGTATCGAGTCGTGCTAG`, “fitted relative affinity” read 1.25 z-score.
For `TTAGGTATCGGATTTCGGTTAGTGCTA`, “fitted relative affinity” read 3.93 z-score.

Sample 2
Target: Fragile X messenger ribonucleoprotein 1, C-terminal low-complexity region (Fmr1, Mus musculus, UniProt P35922)
Technique: RNA Bind-n-Seq
Molecule type: RNA
Medium: in vitro
Tested at: 200 nM
Notes: whole 134-nt RNA, ends assumed
Added: 150 mM KCl
Baseline: input library
Direction: higher = stronger binding
All sequences stand within: GGGAGUUCUACAGUCCGACGAUC … UGGAAUUCUCGGGUGUCAAGG
For `UGUGGAGGAGACGGCCGACUCGACGCUGUGCCACAUCCUGAACCUGUACCGGCGGGCCACCUGGCUGCACCAGGCGCUGCGGGAGGGCAC`, the log2 enrichment was -0.917.
The log2 enrichment of `AAGUCCUGUGCUACACAUCGUAUGUACCGAAUCGGGUGGGUUUUUGGGUUUUUGGGAAAGUAUUAUGUUACGCCGUUCGGAUCUGCACUU` is reported as 0.486.
`UGGGUGGUGGAUUUUGUUUAUUUUUUUAGCUCAUUUCCAGGGGUGGGAAUUUUUUUUUAAUAUGUGUCAUGAAUAAAGUUGUUUUUGAAA` gave a log2 enrichment of 0.38.
`CAAGUCCUGUGCUACACAUCGUAUGUACCGAAUCGGGAAAAAGGGAAAGGGAGGGAAAGUAUUAUGUUACGCCGUUCGGAUCUGCACUUC` gave a log2 enrichment of 0.649.
With `UGGGAGGUGGAUUUUGUUUAUUUUUUUAGCUCAUUUCCAGGGGUGGGAAUUUUUUUUUAAUCUGUGUCAUGAAUAAAGUUGUUUUUGAAA` the log2 enrichment was 0.502.
`CAAGUCCUGUGCUACACAUCGUAUGUACCGAAUCGGAAAAGGAAAAGGGGAAAAGGAAAGUAUUAUGUUACGCCGUUCGGAUCUGCACUU` gave a log2 enrichment of -0.531.

Sample 3
Target: Histone acetyltransferase KAT6A, winged helix 1, GST fusion (KAT6A, Homo sapiens, UniProt Q92794, residues 1-85)
Technique: protein binding microarray
Molecule type: double-stranded DNA, one strand shown
Medium: in vitro
Tested at: not given
Notes: 8-mer, flanks averaged, mean of 2 arrays, mostly near background
Baseline: not given
Direction: higher = stronger binding
Residues (chain): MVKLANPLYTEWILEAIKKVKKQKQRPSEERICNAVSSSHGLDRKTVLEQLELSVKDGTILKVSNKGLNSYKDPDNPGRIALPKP
The E-score of `AATCCTCA` is reported as -0.248.
`GATTACAC` has an E-score of -0.0234.
For `GCGCACGA`, the E-score was 0.261.
The E-score of `GATGCCAA` is reported as -0.239.
For `AATATGTC`, the E-score was -0.11.
`AGCGATGC` has an E-score of 0.192.
The E-score of `CCGTTTAC` is reported as 0.215.
The E-score of `ATAAATCC` is reported as -0.03.

Other studies, line by line
The fold induction of `PhoQ, residues 284 288 289 292 302 303 SSCLAV` is reported as 6.39 (PhoP, residues 12 14 15 18 19 AYFRS (Escherichia coli, UniProt P23836); Sort-seq, item: YFP reporter; E. coli; PhoQ-PhoP variant library, added: 10 µM Mg2+; baseline: high Mg2+ state, higher = stronger signaling).
